Measured values of several laboratories.
Lines come from different studies, so protocols differ. ± marks the error that the study gave. In brackets after ≈: the same amount, converted by molar mass.
rep main protease: Replicase polyprotein 1ab, main protease (rep, Severe acute respiratory syndrome coronavirus 2, UniProt P0DTD1)
rep nsp14: Replicase polyprotein 1ab, nsp14 (rep, Severe acute respiratory syndrome coronavirus 2, UniProt P0DTD1)
rep nsp3 macrodomain: Replicase polyprotein 1ab, nsp3 macrodomain (rep, Severe acute respiratory syndrome coronavirus 2, UniProt P0DTD1)
OPRK1: Kappa-type opioid receptor (OPRK1, Homo sapiens, UniProt P41145)
Chain of UniProt P41145 (whole entry, looked up): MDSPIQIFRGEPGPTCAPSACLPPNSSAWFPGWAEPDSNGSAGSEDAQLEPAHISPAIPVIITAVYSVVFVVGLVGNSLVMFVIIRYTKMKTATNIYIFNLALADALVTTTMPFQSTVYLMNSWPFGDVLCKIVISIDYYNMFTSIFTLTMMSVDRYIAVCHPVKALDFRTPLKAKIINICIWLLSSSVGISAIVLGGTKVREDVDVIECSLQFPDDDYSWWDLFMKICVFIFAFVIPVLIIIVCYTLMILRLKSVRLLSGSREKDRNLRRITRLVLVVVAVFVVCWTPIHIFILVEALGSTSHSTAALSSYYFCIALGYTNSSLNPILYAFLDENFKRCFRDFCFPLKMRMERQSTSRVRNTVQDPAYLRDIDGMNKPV

`CC(=O)Oc1ccc(/C=C/C(=O)O[C@@H]2Cc3c(O)cc(O)cc3O[C@@H]2c2ccc(O)c(O)c2)cc1OC(C)=O` gave a Kd of 2.44 µM (rep main protease; binding, SPR).
With `CCN1C(=O)CCC1c1c(O)cc(O)c2c1O[C@H](c1cc(O)c(O)c(O)c1)[C@H](OC(=O)c1cc(O)c(O)c(O)c1)C2` (stereo partly shown) the Kd was 3.46 µM (rep main protease; binding, SPR).
`Nc1ncnc2c1ncn2[C@@H]1O[C@H](CSCCNC(=O)NCC2CCCCC2)[C@@H](O)[C@H]1O` gave a Kd of 2.4 µM (rep nsp14; binding to nsp14, surface plasmon resonance).
`CCCCCCCCCCCCCCCC(=O)N[C@@H](CCC(=O)NCCOCCOCCC(=O)NCCOCCOCCC(=O)NCCCC[C@H](NC(=O)[C@H](CC(=O)O)NC(=O)[C@H](CC(C)C)NC(=O)[C@H](Cc1ccc(O)cc1)NC(=O)[C@H](CCCCN)NC(=O)[C@H](CO)NC(=O)[C@H](Cc1ccc(O)cc1)NC(=O)[C@H](CC(=O)O)NC(=O)[C@H](CO)NC(=O)[C@@H](NC(=O)[C@H](Cc1ccccc1)NC(=O)[C@@H](NC(=O)CNC(=O)[C@H](CCC(N)=O)NC(=O)[C@@H](CO)NC(=O)[C@@H](N)Cc1c[nH]cn1)[C@@H](C)O)[C@@H](C)O)C(=O)N[C@@H](CCCNC(=N)N)C(=O)N[C@@H](CCCNC(=N)N)C(=O)N[C@@H](C)C(=O)N[C@@H](CCC(N)=O)C(=O)N[C@@H](CC(=O)O)C(=O)N[C@@H](Cc1ccccc1)C(=O)N[C@H](C(=O)N[C@@H](CCC(N)=O)C(=O)N[C@@H](Cc1c[nH]c2ccccc12)C(=O)N[C@@H](CC(C)C)C(=O)N[C@@H](CC(C)C)C(=O)N[C@@H](CC(N)=O)C(=O)N[C@H](C(=O)NCC(=O)NCC(=O)N1CCC[C@H]1C(=O)N[C@@H](CO)C(=O)N[C@@H](CO)C(=O)NCC(=O)N[C@@H](C)C(=O)N1CCC[C@H]1C(=O)N1CCC[C@H]1C(=O)N1CCC[C@H]1C(=O)N[C@@H](CO)C(N)=O)[C@@H](C)O)C(C)C)C(=O)O`: “serum enzyme activity” 622 ± 159 U/L (refers to: CK; Sprague-Dawley rat, male; subcutaneous, 20 µg/kg once daily, 14 days).
`CCC(C)C(NC(=O)c1[nH]nc2c1CCC2)c1nc2ccccc2[nH]1` (stereo not shown) has a Kd of 36.3 ± 2 µM (rep nsp3 macrodomain; binding, microscale thermophoresis; 4% DMSO).
`O=c1oc2c(O)c(O)ccc2c2cc(O)c(O)cc12` gave a Kd of 0.065 ± 0.006 µM (rep main protease; microscale thermophoresis; SARS-CoV-2; overnight, pH 8, 4 °C).
For `CC(C)(C)c1ccc(NC(=O)NCCC[C@H](CNCc2ccccc2)C[C@H]2O[C@@H](n3cnc4c(N)ncnc43)[C@H](O)[C@@H]2O)cc1`, the Kd was 18.9 µM (rep nsp14; binding to nsp14, surface plasmon resonance).
`CC(C)C[C@H](NC(=O)[C@H](CO)NC(=O)[C@H](CCCCN)NC(=O)[C@H](CC(C)C)NC(=O)[C@H](C)NC(=O)[C@H](CCCCN)NC(=O)[C@H](CCC(=O)O)NC(=O)[C@H](C)NC(=O)[C@H](CC(C)C)NC(=O)[C@H](CC(N)=O)NC(=O)[C@@H]1CCCN1C(=O)[C@H](CC(C)C)NC(=O)[C@H](Cc1ccccc1)NC(=O)CNC(=O)[C@H](NC(=O)[C@@H](N)Cc1ccc(O)cc1)[C@H](C)O)C(N)=O` gave a Ki of 0.014 µM (OPRK1; ligand displacement, radioligand; pH 7.5, cell membranes).
For `Oc1cc(O)c2c(c1)O[C@H](c1cc(O)c(O)c(O)c1)[C@H](O)C2`, the Kd was 11.2 µM (rep main protease; binding, SPR).
For `O=S(=O)(O)c1cccc2cccc(Nc3ccccc3)c12`, the Kd was 57 µM (rep main protease; binding, fluorescence).
For `CNC(=O)C[C@H](Cc1ccc(F)cc1)NC(=O)[C@@H](Cc1ccc(Cl)cc1Cl)NC(=O)[C@H](N)Cc1ccccc1C#N`, the Kd was 0.434 µM (rep main protease; binding, SPR).
`CC(=O)N[C@@H](Cc1ccc(O)cc1)C(=O)N[C@@H](CC(=O)O)C(=O)NCCC(=O)N[C@@H](Cc1ccccc1)C(=O)N[C@@H](Cc1ccc(O)cc1)C(=O)NCCC(=O)N[C@@H](Cc1ccc(O)cc1)C(=O)N[C@H](C(=O)N[C@H](C(=O)N[C@@H](Cc1ccccc1)C(=O)N[C@@H](Cc1c[nH]cn1)C(=O)N[C@H](C(=O)N[C@@H](C)C(=O)N[C@H](C(N)=O)[C@@H](C)O)C(C)C)[C@@H](C)O)C(C)C` gave a Kd of 0.0164 µM (rep main protease; binding, SPR).
`CC[C@H](C)[C@H](NC(=O)[C@H](CCCCN)NC(=O)[C@H](CCCCN)NC(=O)[C@H](CC(C)C)NC(=O)[C@H](Cc1c[nH]c2ccccc12)NC(=O)CN)C(=O)NCC(=O)N[C@@H](CCCCN)C(=O)N[C@@H](CCCCN)C(=O)N[C@H](C(=O)N[C@@H](CCC(=O)O)C(=O)N[C@@H](CCCNC(=N)N)C(=O)N[C@H](C(=O)NCC(=O)N[C@@H](CCC(N)=O)C(=O)N[C@@H](Cc1c[nH]cn1)C(=O)N[C@H](C(=O)N[C@@H](CCCNC(=N)N)C(=O)N[C@@H](CC(=O)O)C(=O)N[C@@H](C)C(=O)N[C@H](C(=O)N[C@H](C(=O)N[C@@H](CCC(N)=O)C(=O)N[C@H](C(=O)N[C@H](C(=O)NCC(=O)N[C@H](C(=O)N[C@@H](C)C(=O)N[C@@H](CCC(N)=O)C(=O)N[C@@H](CCC(N)=O)C(=O)N[C@@H](C)C(=O)N[C@@H](C)C(=O)N[C@@H](CC(N)=O)C(=O)N[C@H](C(=O)N[C@@H](C)C(=O)N[C@@H](C)C(=O)N[C@H](C(=O)N[C@@H](CC(C)C)C(=O)N[C@@H](CCCCN)C(N)=O)[C@@H](C)O)C(C)C)C(C)C)[C@@H](C)CC)[C@@H](C)O)[C@@H](C)CC)[C@@H](C)O)[C@@H](C)O)C(C)C)[C@@H](C)CC` gave an MIC of 4 µg/mL (≈ 0.952 µM) (Klebsiella pneumoniae; broth microdilution; DSM 30104, CAMHB).
`CC(C)C[C@H](NC(=O)[C@H](CO[C@@H]1O[C@H](CO)[C@@H](O[C@@H]2O[C@H](CO)[C@H](O)[C@H](O)[C@H]2O)[C@H](O)[C@H]1O)NC(=O)[C@H](CCCCN)NC(=O)[C@H](CC(C)C)NC(=O)CNC(=O)[C@H](CCCCN)NC(=O)[C@H](CCC(=O)O)NC(=O)[C@H](C)NC(=O)[C@H](CC(C)C)NC(=O)[C@H](CC(N)=O)NC(=O)[C@@H]1CCCN1C(=O)[C@H](CC(C)C)NC(=O)[C@H](Cc1ccccc1)NC(=O)CNC(=O)[C@H](NC(=O)[C@@H](N)Cc1ccc(O)cc1)[C@H](C)O)C(N)=O` has a Ki of 0.013 µM (OPRK1; ligand displacement, radioligand; pH 7.5, cell membranes).
`CCCCCCCCCCCCCCCC(=O)N[C@@H](CCC(=O)NCCCC[C@H](NC(=O)[C@H](CC(=O)O)NC(=O)[C@H](CO)NC(=O)[C@@H](NC(=O)[C@H](Cc1ccccc1)NC(=O)[C@@H](NC(=O)CNC(=O)[C@H](CCC(N)=O)NC(=O)[C@H](C)NC(=O)[C@@H](Cc1ccc(O)cc1)NC(C)=O)[C@@H](C)O)[C@@H](C)O)C(=O)N[C@@H](CO)C(=O)N[C@@H](CCCCN)C(=O)N[C@@H](Cc1ccc(O)cc1)C(=O)N[C@@H](CC(C)C)C(=O)N[C@@H](CC(=O)O)C(=O)N[C@@H](CCC(=O)O)C(=O)N[C@@H](CCCNC(=N)N)C(=O)N[C@@H](C)C(=O)N[C@@H](C)C(=O)N[C@@H](CCC(N)=O)C(=O)N[C@@H](CC(=O)O)C(=O)N[C@@H](Cc1ccccc1)C(=O)N[C@H](C(=O)N[C@@H](CCC(N)=O)C(=O)N[C@@H](Cc1c[nH]c2ccccc12)C(=O)N[C@@H](CC(C)C)C(=O)N[C@@H](CC(C)C)C(=O)N[C@@H](CCC(=O)O)C(=O)NCC(=O)NCC(=O)N1CCC[C@H]1C(=O)N[C@@H](CO)C(=O)N[C@@H](CO)C(=O)NCC(=O)N[C@@H](C)C(=O)N1CCC[C@H]1C(=O)N1CCC[C@H]1C(=O)N1CCC[C@H]1C(=O)N[C@@H](CO)C(N)=O)C(C)C)C(=O)O` has a bioavailability of 36.1% (male cynomolgus monkey, plasma; subcutaneous, 0.0211 mg/kg).
For `COc1ccc(C(C)NC(=O)c2cc(N)ccc2C)cc1OC` (stereo not shown), the Kd was 26.7 µM (Replicase polyprotein 1ab, papain-like protease (rep, Severe acute respiratory syndrome coronavirus 2, UniProt P0DTD1); binding).
The Kd of `COC(=O)C[C@H](c1ccc(O)cc1)c1c(O)cc(O)c2c1O[C@H](c1cc(O)c(O)c(O)c1)[C@H](OC(=O)c1cc(O)c(O)c(O)c1)C2` is reported as 2.25 µM (rep main protease; binding, SPR).
`O=C(O)CCC(=O)Nc1ccc2nc3c(=O)[nH]c(=O)[nH]c3nc2c1` gave a Kd of 45 ± 1.8 µM (rep nsp3 macrodomain; binding, microscale thermophoresis; 4% DMSO).
With `O=C(Nc1ccc(-c2noc(O)n2)cc1)C1CCCS1` (stereo not shown) the Kd was > 200 µM (Replicase polyprotein 1ab, nsp12 RdRp (rep, Severe acute respiratory syndrome coronavirus 2, UniProt P0DTD1); binding).
`O=c1oc2cc(O)ccc2c2cc(O)c(O)cc12` gave a Kd of 6.7 ± 0.7 µM (rep main protease; binding).
`O=C(/C=C/c1ccc(O)cc1)O[C@@H]1Cc2c(O)cc(O)cc2O[C@@H]1c1ccc(O)c(O)c1` has a Kd of 4.48 µM (rep main protease; binding, SPR).
`CN(C)CCCNC(=O)C[C@H](Cc1ccc(F)cc1)NC(=O)[C@@H](Cc1ccc(Cl)cc1Cl)NC(=O)[C@H](N)Cc1ccccc1C#N` gave a Kd of 0.063 µM (rep main protease; binding, SPR).

Repeated from above:
`O=C(/C=C/c1ccc(O)cc1)O[C@@H]1Cc2c(O)cc(O)cc2O[C@@H]1c1ccc(O)c(O)c1` has a Kd of 4.48 µM (rep main protease; binding, SPR).
`CN(C)CCCNC(=O)C[C@H](Cc1ccc(F)cc1)NC(=O)[C@@H](Cc1ccc(Cl)cc1Cl)NC(=O)[C@H](N)Cc1ccccc1C#N` gave a Kd of 0.063 µM (rep main protease; binding, SPR).
